{"data": "Results of several laboratories", "organism": "HIV-1", "note": "Compare with care: the assays were run in different laboratories. Several values in a cell are separate wells, animals, samples, runs or records. ± marks the error that the study gave."}
{"Structure (SMILES)": "CCCC(=O)OCSc1ccccc1C(=O)NCCn1cc(C(=O)NCc2ccccc2)c(=O)c2cc3c(cc21)OCO3", "effect on": "virus-induced cytopathic effect", "action": "inhibitor", "technique": "XTT", "cell line": "CEM-SS", "strain": "RF", "time": "6 days", "EC50": "5.13 ± 0.16 µM"}
{"Structure (SMILES)": "O=C(N/N=C/c1cc(Br)ccc1O)c1cccnc1", "effect on": "viral cytopathic effect", "technique": "MTT", "cell line": "MT4", "strain": "IIIB", "EC50": "> 3 µM"}
{"Structure (SMILES)": "CCCC(=O)OCSc1ccccc1C(=O)NCCn1cc(C(=O)NCc2cccc(C)n2)c(=O)c2cc3c(cc21)OC(F)(F)O3", "effect on": "viral replication", "cell line": "human PBMC", "strain": "CMU08 (CXCR4-tropic)", "EC50": "5.23 ± 0.37 µM"}
{"Structure (SMILES)": "O=C1Nc2ccc(Cl)cc2[C@@](C#CC2CC2)(C(F)(F)F)O1", "effect on": "viral replication", "technique": "MTT", "cell line": "MT4", "strain": "IIIB wild type", "EC50": "0.0019 ± 0.0009 µM"}
{"Structure (SMILES)": "CCCC(=O)OCSc1ccccc1C(=O)NCCn1ccc(=O)c2cc(OC)ccc21", "effect on": "virus-induced cytopathic effect", "action": "inhibitor", "technique": "XTT", "cell line": "CEM-SS", "strain": "RF", "time": "6 days", "EC50": "0.69 ± 0.96 µM"}
{"Structure (SMILES)": "Cn1c(Cn2ccc(C(F)(F)F)c(Oc3cc(Cl)cc(C#N)c3)c2=O)n[nH]c1=O", "effect on": "viral replication", "technique": "MTT", "cell line": "MT4", "strain": "IIIB wild type", "EC50": "0.0023 ± 0.001 µM"}
{"Structure (SMILES)": "CN1CCC(c2c(O)cc(O)c3c(=O)cc(-c4ccccc4)oc23)C(O)C1 (stereo not shown)", "effect on": "viral replication", "technique": "single-round infectivity", "cell line": "HeLa-CD4-LTR-β-gal", "strain": "LAI", "EC50": "< 0.01 µM and 0.0074 µM"}
{"Structure (SMILES)": "Cc1c(O)cccc1C(=O)N[C@@H](CSc1ccccc1)[C@H](O)CN1C[C@H]2CCCC[C@H]2C[C@H]1C(=O)NC(C)(C)C", "effect on": "infectivity of progeny virus", "cell line": "HEK293FT", "strain": "NL4-3", "EC50": "0.02 µM"}
{"Structure (SMILES)": "COc1ccc(S(=O)(=O)N(CC(C)C)C[C@@H](O)[C@H](Cc2ccccc2)NC(=O)O[C@H]2CCC[C@]23CCO[C@H](c2ccccc2OC)C3)cc1", "effect on": "viral replication", "cell line": "MT2", "strain": "LAI", "EC50": "0.21 µM"}
{"Structure (SMILES)": "CCNc1nc(NCC)nc(C(=O)NN)n1", "effect on": "viral cytopathic effect", "technique": "MTT", "cell line": "MT4", "strain": "IIIB", "EC50": "> 20 µM"}
{"Structure (SMILES)": "CCCC(=O)OCSc1ccccc1C(=O)NCCOc1ccnc2ccc(OC)cc12", "effect on": "virus-induced cytopathic effect", "action": "inhibitor", "technique": "XTT", "cell line": "CEM-SS", "strain": "RF", "time": "6 days", "EC50": "7.17 ± 2.94 µM"}
{"Structure (SMILES)": "COc1ccc(OC)c(/C=N/NC(=O)c2n[nH]c3c2CCC3)c1", "effect on": "viral cytopathic effect", "technique": "MTT", "cell line": "MT4", "strain": "IIIB", "EC50": "> 40 µM"}
{"Structure (SMILES)": "CCC[C@H](NC(=O)C1CN(C)C1)c1ncc(-c2cc3ccccc3nc2OC)[nH]1", "effect on": "HIV latency reversal", "cell line": "Jurkat 2C4 latent HIV provirus", "EC50": "> 40 µM"}
{"Structure (SMILES)": "Cc1cc(/C=C/C#N)cc(C)c1Nc1ccnc(Nc2ccc(C#N)cc2)n1", "effect on": "viral replication", "technique": "MTT", "cell line": "MT4", "strain": "IIIB wild type", "EC50": "0.0025 ± 0.0007 µM"}
{"Structure (SMILES)": "CC(=O)c1ccc2c(c1)N(CCCN(C)C)c1ccccc1S2", "effect on": "cytopathicity", "technique": "XTT", "cell line": "CEM-SS", "strain": "RF", "time": "6 days", "EC50": "> 16 µM"}
{"Structure (SMILES)": "c1ccc(/N=N/C(=N/Nc2ccccc2)c2ccccc2)cc1", "effect on": "viral cytopathic effect", "technique": "MTT", "cell line": "MT4", "strain": "IIIB", "EC50": "> 5 µM"}
{"Structure (SMILES)": "CCCC(=O)OCSc1ccccc1C(=O)NCCn1cc(C(=O)NN2CCN(C)CC2)c(=O)c2cc3c(cc21)OCO3", "effect on": "virus-induced cytopathic effect", "action": "inhibitor", "technique": "XTT", "cell line": "CEM-SS", "strain": "RF", "time": "6 days", "EC50": "3.02 ± 4.16 µM"}
{"Structure (SMILES)": "Cc1nc(NCCNc2ccnc3cc(Cl)ccc23)nc(-c2ccccc2[N+](=O)[O-])c1C(=O)OC(C)C", "effect on": "viral replication", "cell line": "CCRF-CEM", "strain": "IIIB", "EC50": "> 2 µM"}
{"Structure (SMILES)": "Cc1cn([C@H]2C[C@H](N=[N+]=[N-])[C@@H](CO)O2)c(=O)[nH]c1=O", "effect on": "viral replication", "technique": "reverse transcriptase", "cell line": "human PBMC", "strain": "92HT599 (CXCR4-tropic)", "time": "7 days", "EC50": "0.008 ± 0.0002 µM"}
{"Structure (SMILES)": "CC/N=c1/scc(-c2cc(OC)ccc2OC)n1/N=C(\\C)c1ccco1", "effect on": "viral cytopathic effect", "technique": "MTT", "cell line": "MT4", "strain": "IIIB", "EC50": "> 60 µM"}
{"Structure (SMILES)": "CCCC(=O)OCSc1ccccc1C(=O)NCCn1ccc(=O)c2cc(OC(F)(F)F)ccc21", "effect on": "virus-induced cytopathic effect", "action": "inhibitor", "technique": "XTT", "cell line": "CEM-SS", "strain": "RF", "time": "6 days", "EC50": "4.89 ± 1.43 µM"}
{"Structure (SMILES)": "COc1ccc(CN2CCCN(c3ccc(S(=O)(=O)Nc4ccccc4)cc3[N+](=O)[O-])CC2)cc1", "effect on": "viral cytopathic effect", "technique": "MTT", "cell line": "MT4", "strain": "IIIB", "EC50": "24 µM"}
{"note": "Repeated from above:"}
{"Structure (SMILES)": "CCCC(=O)OCSc1ccccc1C(=O)NCCn1cc(C(=O)NN2CCN(C)CC2)c(=O)c2cc3c(cc21)OCO3", "effect on": "virus-induced cytopathic effect", "action": "inhibitor", "technique": "XTT", "cell line": "CEM-SS", "strain": "RF", "time": "6 days", "EC50": "3.02 ± 4.16 µM"}
{"Structure (SMILES)": "Cn1c(Cn2ccc(C(F)(F)F)c(Oc3cc(Cl)cc(C#N)c3)c2=O)n[nH]c1=O", "effect on": "viral replication", "technique": "MTT", "cell line": "MT4", "strain": "IIIB wild type", "EC50": "0.0023 ± 0.001 µM"}
{"Structure (SMILES)": "CCCC(=O)OCSc1ccccc1C(=O)NCCn1ccc(=O)c2cc(OC(F)(F)F)ccc21", "effect on": "virus-induced cytopathic effect", "action": "inhibitor", "technique": "XTT", "cell line": "CEM-SS", "strain": "RF", "time": "6 days", "EC50": "4.89 ± 1.43 µM"}
